{"data": "Assay results from different studies", "note": "Compare with care: the assays were run in different laboratories. Numbers after ± are the reported error."}
{"SMILES": "COc1ccc(C[C@@H]2NC(=O)[C@H]([C@@H](C)O)NC(=O)[C@@H]3[C@@H]4CCN3C(=O)[C@@H]3Cc5cn(c6ccc(F)cc56)CCCCCCN(Cc5ccc(cc5)CCNC(=O)[C@]5(C)CCCN5C2=O)C(=O)CCC(=O)N[C@@H](C)C(=O)N[C@H](CNC(=O)CCCCC[N+](C)(C)C)C(=O)N[C@@H](Cc2cccc(c2)CNC(=O)CO4)C(=O)N3)cc1", "assay": "item: Flushing", "system": "humans", "conditions": "concentration not given, Study-003", "quantity": "participants with adverse event", "result": "3.2%"}
{"SMILES": "Cn1ncc(-c2nc(N[C@H]3CC[C@H](N)CC3)ncc2Cl)c1CC1CC1", "assay": "item: dyspnea grade 3 or higher", "system": "human patients phase I", "conditions": "dose not given", "quantity": "adverse event incidence", "result": "13%"}
{"SMILES": "COc1ccnc(C(=O)N[C@H]2COC(=O)[C@H](Cc3ccccc3)[C@@H](OC(=O)C(C)C)[C@H](C)OC2=O)c1OCOC(=O)C(C)C", "system": "pond water", "conditions": "0.2 mg/L, 21.0 °C, whole system, aerobic mineralisation", "quantity": "DT50", "result": "0.1 days"}
{"SMILES": "CC/C(=C(\\c1ccccc1)c1ccc(OCCN(C)C)cc1)c1ccccc1", "system": "CD-1 mouse, male, lung", "conditions": "intraperitoneal, 1 mg/kg", "quantity": "half-life", "result": "5.8 h"}
{"SMILES": "O=C(O)C(F)(F)C(F)(F)C(F)(F)C(F)(F)C(F)(F)C(F)(F)C(F)(F)F", "system": "human, plasma", "conditions": "oral, 50 mg", "quantity": "Vd", "result": "0.08 L/kg"}
{"SMILES": "CC(=O)c1c(C)c2cnc(Nc3ccc(C4CCN(CCS(C)(=O)=O)CC4)cn3)nc2n(C2CCCC2)c1=O", "system": "human, dose-escalation trial, plasma", "conditions": "oral, 75 mg twice daily, day 1, single dose", "quantity": "AUC(0-t)", "result": "1340 ng·h/mL"}
{"SMILES": "CC[C@H](C)[C@H](NC(=O)[C@H](Cc1c[nH]cn1)NC(=O)[C@H](CO)NC(=O)CNC(=O)[C@H](CCC(=O)O)NC(=O)[C@H](CCSC)NC(=O)[C@@H](NC(=O)[C@H](Cc1c[nH]cn1)NC(=O)[C@H](CO)NC(=O)[C@H](CCSC)NC(=O)[C@H](C)NC(=O)[C@H](CC(N)=O)NC(C)=O)C(C)C)C(=O)N[C@@H](CC(N)=O)C(=O)N[C@@H](Cc1c[nH]c2ccccc12)C(=O)N[C@@H](CC(=O)O)C(=O)N[C@@H](C)C(N)=O", "assay": "circular dichroism", "system": "water with 5% DMSO", "conditions": "500 µM, 18 °C", "quantity": "random coil content", "result": "65%"}
{"SMILES": "C[C@]1(CO)Cc2ncn(-c3ccc(C#N)c(Cl)c3)c2C(=O)O1", "system": "human, plasma", "conditions": "20 mg single dose, median", "quantity": "tmax", "result": "1.5 h"}
{"SMILES": "CO[C@H]1C[C@@H]2CC[C@@H](C)[C@@](O)(O2)C(=O)C(=O)N2CCCC[C@H]2C(=O)O[C@H]([C@H](C)C[C@@H]2CC[C@@H](OC(=O)NCCOCCOCCOCCOCCOCCOCCOCCOCCC(=O)N3CCc4cc(Cn5nc(-c6ccc7oc(N)nc7c6)c6c(N)ncnc65)ccc4C3)[C@H](OC)C2)C[C@@H](O)[C@H](C)/C=C(\\C)[C@@H](O)[C@@H](OC)C(=O)[C@H](C)C[C@H](C)/C=C/C=C/C=C/1C", "system": "patients with advanced solid tumours", "conditions": "intravenous, 8 mg weekly, any grade", "quantity": "AE leading to dose reduction", "result": "0%"}
{"SMILES": "C[C@]1(O)C[C@@](N)(c2ccc(-c3nc4n(c3-c3ccccc3)COc3ccncc3-4)cc2)C1", "system": "human, advanced or metastatic solid tumours", "conditions": "16 mg once daily, phase I dose escalation", "quantity": "patients with Stomatitis TEAE", "result": "0%"}
{"SMILES": "O=C(O)CCCOc1ccc(F)cc1-c1cc(-c2ccccc2C(F)(F)F)n(-c2ccccc2)n1", "assay": "item: ovaries", "system": "Crl:CD(SD) rats, female", "conditions": "iv, 25 µg/kg, 1 day", "quantity": "relative organ weight", "result": "39.8 ± 6.9 mg%"}
{"SMILES": "Cn1cncc1-c1c(F)cncc1NC(=O)c1c(N)nn2cc(F)cnc12", "system": "human patients", "conditions": "oral, dose not given, all doses", "quantity": "grade ≥3 creatinine increased", "result": "4%"}
{"SMILES": "COc1cc2c(Oc3ccc4[nH]c(C)cc4c3F)ccnc2cc1OCC1(N)CC1", "system": "paediatric refractory sarcoma patients", "conditions": "10 mg", "quantity": "Haematochezia incidence", "result": "0%"}
{"SMILES": "CC1(C)C(/C=C(\\Cl)C(F)(F)F)C1C(=O)OC(C#N)c1cccc(Oc2ccccc2)c1 (centres unmarked)", "assay": "item: CYP2C19", "system": "human, age 6 months", "quantity": "enzyme contribution to clearance", "result": "0.34%"}
{"note": "Some of these lines once more:"}
{"SMILES": "CC[C@H](C)[C@H](NC(=O)[C@H](Cc1c[nH]cn1)NC(=O)[C@H](CO)NC(=O)CNC(=O)[C@H](CCC(=O)O)NC(=O)[C@H](CCSC)NC(=O)[C@@H](NC(=O)[C@H](Cc1c[nH]cn1)NC(=O)[C@H](CO)NC(=O)[C@H](CCSC)NC(=O)[C@H](C)NC(=O)[C@H](CC(N)=O)NC(C)=O)C(C)C)C(=O)N[C@@H](CC(N)=O)C(=O)N[C@@H](Cc1c[nH]c2ccccc12)C(=O)N[C@@H](CC(=O)O)C(=O)N[C@@H](C)C(N)=O", "assay": "circular dichroism", "system": "water with 5% DMSO", "conditions": "500 µM, 18 °C", "quantity": "random coil content", "result": "65%"}
{"SMILES": "C[C@]1(CO)Cc2ncn(-c3ccc(C#N)c(Cl)c3)c2C(=O)O1", "system": "human, plasma", "conditions": "20 mg single dose, median", "quantity": "tmax", "result": "1.5 h"}
